# Results from different studies.
# Each line is one published result; not all experiments were run side by side. ± gives the spread as reported.
Structure (SMILES),test,test system,conditions,how to read,Ctrough [ng/mL]
COc1ccc([C@@H](O)c2cc(-c3ncnc4cc(N5CCOCC5)ccc34)c(F)cc2Cl)nn1,LC-MS,"human, plasma","oral, 100 mg twice daily, multiple dose, geometric mean",,126
Cc1cc(Nc2cc3ncccc3c(N[C@@H]3C[C@H]4CC[C@@H](C3)N4CCC#N)n2)n[nH]1,,human,"270 mg, day 14, geometric mean",,0.701
CC(=O)c1c(C)c2cnc(Nc3ccc(N4CCNCC4)cn3)nc2n(C2CCCC2)c1=O,LC-MS/MS,"human, plasma","oral, 75 mg, cycle 1 day 15, together with: neratinib 160 mg",,104
Cc1cc(C)c(CNC(=O)c2cc(Cl)c3c(c2C)O[C@@](C)([C@H]2CC[C@H](N(C)C)CC2)O3)c(=O)[nH]1,,"human NHL patients, plasma","oral, 200 mg/day, 15 day",,205
COc1cc(-c2cnc3cc(OCCN4CCOCC4)ccn23)cc2c1C(=O)N(CC(F)(F)F)CC2,LC-MS,"human, plasma","oral, 350 mg once daily, day 7, co-dosed with methotrexate",arithmetic mean,68.1
Cn1ncnc1[C@H]1c2n[nH]c(=O)c3cc(F)cc(c23)N[C@@H]1c1ccc(F)cc1,,"human patients, plasma","oral, 600 µg/m2/day, day 6",,3.8 ± 1.9
Cl.[2H]C([2H])([2H])CC(=O)c1cnc(NC(=O)C2CC2)cc1Nc1cccc(-c2ncn(C([2H])([2H])[2H])n2)c1OC,,"human, fasted, multiple dose","oral, 20 mg twice daily, tablet, day 14, geometric mean",,109
NCCONC(=O)[C@@H]1CC[C@@H]2CN1C(=O)N2OS(=O)(=O)O,,"human, plasma","intravenous infusion, 2 g, days 7 to 9, multiple dosing, range of means",,5780 to 6120

# A few entries again:
Structure (SMILES),test,test system,conditions,how to read,Ctrough [ng/mL]
NCCONC(=O)[C@@H]1CC[C@@H]2CN1C(=O)N2OS(=O)(=O)O,,"human, plasma","intravenous infusion, 2 g, days 7 to 9, multiple dosing, range of means",,5780 to 6120
